Assay results collected from several papers.
Several values in a cell are separate wells, animals, samples, runs or records. ± gives the spread as reported.

SMILES	organism	assay	test system	conditions	scale	endpoint	value
OC(CCN1CC=C(c2ccc(F)cc2)CC1)c1ccc(F)c2ccccc12 (centres unmarked)	Salmonella typhimurium	genotoxicity, SOS/umu test	TA1535/pSK1002	0.004 mg/mL, 4 h, without S9, full range		induction factor	1.1
COc1cccc(-c2n[nH]c(SCc3ccccn3)n2)c1OC	Salmonella typhimurium	Ames test, preincubation	TA1535	0.031 mg/plate, with rat liver S9		revertant colonies per plate	12
O=NN1CCN(C2CCCC2)CC1	Escherichia coli	mutagenicity, Ames plate incorporation	WP2 uvrA pKM101	500 µg/plate, 3 d, without S9, methanol		revertant colonies per plate	141 ± 9
CC(C)C[C@H](NC(=O)[C@H](Cc1c[nH]cn1)NC(=O)[C@H](Cc1c[nH]cn1)NC(=O)[C@H](Cc1ccc(O)cc1)NC(=O)[C@@H](N)CS)C(=O)N[C@H](C(=O)N[C@@H](CC(C)C)C(=O)N[C@H](C(=O)N[C@H](C(=O)NCC(=O)NCC(=O)N[C@@H](CO)C(=O)O)C(C)C)[C@@H](C)O)C(C)C	Epstein-Barr virus		B-NDG humanized mouse, EBV-infected	20 mg/kg, day 0		body weight	21.1 g and 21.7 g
Cc1c(Cl)c(=O)oc2cc(OCCCC[Se]C#N)ccc12	Caenorhabditis elegans		N2 Bristol, NGM with E. coli OP50	5 µM, 24 h		embryonic lethality	1.69%
Cc1cc(C(=O)NC(C)(C)COc2cccc3c2C(N)=NS(=O)(=O)N3)cc(C)n1	Salmonella typhimurium	Ames test, initial	TA1535	500 µg/plate	baseline: solvent control	revertant ratio	1.4
O=[N+]([O-])c1ccc(N2CCC(NCCC(O)c3ccc(F)c4ccccc34)CC2)c(C(F)(F)F)c1 (centres unmarked)	Salmonella typhimurium	SOS/umu test	TA1535/pSK1002, TGA medium	0.000244 mg/mL, 4 h, without S9		survival	110%
CN(CC(C)(C)C)N=O	Escherichia coli	plate incorporation	WP2uvrA pKM101, methanol	2500 µg/plate, without S9		revertant colonies per plate	126 and 151
